Published values collected from several papers.
Each line is one published result; not all experiments were run side by side. Several values in a cell are separate wells, animals, samples, runs or records. ± gives the spread as reported.
Genome polyprotein NS3 helicase domain: Genome polyprotein, NS3 helicase domain (Hepatitis C virus genotype 1b, UniProt Q9WMX2)
CALM1 Ca2+-bound N-lobe: Calmodulin-1, Ca2+-bound N-lobe (CALM1, Homo sapiens, UniProt P0DP23)
NAA80: N-alpha-acetyltransferase 80 (NAA80, Homo sapiens, UniProt Q93015)
UniProt Q93015, sequence (whole entry, looked up): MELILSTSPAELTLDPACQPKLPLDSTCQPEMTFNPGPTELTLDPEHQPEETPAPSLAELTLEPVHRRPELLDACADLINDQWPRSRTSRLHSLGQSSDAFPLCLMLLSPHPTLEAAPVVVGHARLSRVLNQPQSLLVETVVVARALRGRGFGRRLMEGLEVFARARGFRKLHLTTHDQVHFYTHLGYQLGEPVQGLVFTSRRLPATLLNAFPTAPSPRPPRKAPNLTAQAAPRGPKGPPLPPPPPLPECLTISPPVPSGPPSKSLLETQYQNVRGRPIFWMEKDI
ESR1: Estrogen receptor (ESR1, Homo sapiens, UniProt P03372)
UniProt P51575, sequence (whole entry, unmodified, looked up): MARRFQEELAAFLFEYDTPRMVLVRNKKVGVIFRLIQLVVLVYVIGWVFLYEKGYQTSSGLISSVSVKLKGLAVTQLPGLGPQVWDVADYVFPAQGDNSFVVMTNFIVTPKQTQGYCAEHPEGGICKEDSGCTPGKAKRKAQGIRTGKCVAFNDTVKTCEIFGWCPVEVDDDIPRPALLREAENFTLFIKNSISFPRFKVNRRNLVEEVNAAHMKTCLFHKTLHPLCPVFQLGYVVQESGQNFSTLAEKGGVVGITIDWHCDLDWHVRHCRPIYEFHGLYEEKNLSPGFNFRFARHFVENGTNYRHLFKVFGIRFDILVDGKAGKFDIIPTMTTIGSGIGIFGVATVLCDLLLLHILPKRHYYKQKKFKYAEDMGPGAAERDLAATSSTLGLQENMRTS
UniProt O75477, sequence (whole entry, looked up): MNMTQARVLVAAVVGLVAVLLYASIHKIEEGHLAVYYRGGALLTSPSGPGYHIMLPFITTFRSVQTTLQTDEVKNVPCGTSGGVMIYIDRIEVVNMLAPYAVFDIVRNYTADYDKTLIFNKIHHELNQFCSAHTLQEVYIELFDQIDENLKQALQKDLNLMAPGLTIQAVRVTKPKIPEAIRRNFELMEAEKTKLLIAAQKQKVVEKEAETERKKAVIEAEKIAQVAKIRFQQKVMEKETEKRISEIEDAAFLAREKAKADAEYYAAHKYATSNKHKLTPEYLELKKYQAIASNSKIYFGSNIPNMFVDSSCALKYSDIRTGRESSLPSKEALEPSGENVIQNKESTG
UniProt P03372, sequence (whole entry, looked up): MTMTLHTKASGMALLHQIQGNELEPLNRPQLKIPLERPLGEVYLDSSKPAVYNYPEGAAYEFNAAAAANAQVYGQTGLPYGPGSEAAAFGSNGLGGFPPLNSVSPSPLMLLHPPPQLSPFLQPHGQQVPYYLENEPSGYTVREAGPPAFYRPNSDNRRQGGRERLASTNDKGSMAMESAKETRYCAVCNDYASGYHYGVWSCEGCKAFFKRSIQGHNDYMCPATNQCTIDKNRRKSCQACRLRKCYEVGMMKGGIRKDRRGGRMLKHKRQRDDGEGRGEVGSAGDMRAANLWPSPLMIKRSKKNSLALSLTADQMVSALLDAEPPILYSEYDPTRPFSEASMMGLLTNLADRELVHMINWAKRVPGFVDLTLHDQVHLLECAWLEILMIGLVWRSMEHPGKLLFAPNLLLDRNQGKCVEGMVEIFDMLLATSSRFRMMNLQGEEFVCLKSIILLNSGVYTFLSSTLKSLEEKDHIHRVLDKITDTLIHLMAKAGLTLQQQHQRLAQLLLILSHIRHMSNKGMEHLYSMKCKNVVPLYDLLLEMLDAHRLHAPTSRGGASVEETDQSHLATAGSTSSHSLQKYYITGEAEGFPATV
UniProt P02754, sequence (whole entry, looked up): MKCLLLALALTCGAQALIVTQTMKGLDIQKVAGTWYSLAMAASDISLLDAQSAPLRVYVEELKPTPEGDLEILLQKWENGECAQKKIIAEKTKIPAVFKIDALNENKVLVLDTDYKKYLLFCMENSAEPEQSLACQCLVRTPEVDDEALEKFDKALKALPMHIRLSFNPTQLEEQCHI
UniProt Q16774, sequence (whole entry, unmodified, looked up): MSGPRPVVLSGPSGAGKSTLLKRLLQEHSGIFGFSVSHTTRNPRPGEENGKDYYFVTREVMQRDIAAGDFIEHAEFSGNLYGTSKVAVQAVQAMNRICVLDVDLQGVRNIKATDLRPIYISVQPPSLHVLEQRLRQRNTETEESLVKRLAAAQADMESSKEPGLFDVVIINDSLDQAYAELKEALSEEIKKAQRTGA

| Compound | target | assay | test system | conditions | scale | quantity | result |
| --- | --- | --- | --- | --- | --- | --- | --- |
| CCN1CCC[C@H]1CNC(=O)c1c(O)c(Cl)cc(Cl)c1OC | G-protein coupled receptor 55 (GPR55, Homo sapiens, UniProt Q9Y2T6) | β-arrestin recruitment, TANGO luminescence |  | concentration not given | baseline: basal luminescence | log2 fold change | 0.101 |
| NC(=O)c1cc[n+](CC2=C(C(=O)[O-])N3C(=O)[C@@H](NC(=O)C(c4ccccc4)S(=O)(=O)[O-])[C@H]3SC2)cc1.O.[Na+] (stereo partly shown) | Genome polyprotein NS3 helicase domain | DNA binding, inhibitor | hepatitis C virus | 100 µM, with: Cy5-dT15 DNA |  | inhibition | 4% |
| CC[C@H](C)[C@H](NC(=O)[C@H](C)NC(=O)[C@H](CCSC)NC(=O)[C@H](C)NC(=O)[C@H](C)NC(=O)[C@H](Cc1ccc(O)cc1)NC(=O)[C@@H](NC(=O)[C@H](CCCCN)NC(=O)CNC(=O)[C@@H](NC(=O)[C@@H](NC(=O)[C@H](CCSC)NC(=O)[C@H](Cc1c[nH]cn1)NC(=O)CN)[C@@H](C)O)C(C)C)[C@@H](C)CC)C(=O)N[C@@H](CCSC)C(=O)N[C@@H](CCC(=O)O)C(=O)N[C@@H](Cc1ccc(O)cc1)C(=O)N[C@@H](Cc1ccc(O)cc1)C(=O)N[C@@H](CCCNC(=N)N)C(=O)N[C@@H](CCC(N)=O)C(=O)N[C@@H](CO)C(=O)N[C@@H](CCCCN)C(=O)N[C@@H](C)C(=O)N[C@@H](CCCCN)C(=O)N[C@@H](CCCCN)C(=O)N[C@@H](CC(C)C)C(=O)N[C@@H](CCC(N)=O)C(=O)N[C@@H](C)C(=O)N[C@@H](CCSC)C(=O)N[C@@H](CCCNC(=N)N)C(=O)O | CALM1 Ca2+-bound N-lobe | binding, isothermal titration calorimetry |  | pH 7.4, 15 °C, N-lobe, CaV2.1 IQ domain, with: Ca2+ |  | stoichiometry | 1 ± 0.08 |
| Nc1ncnc2c1ncn2[C@@H]1O[C@H](CO[P@](=O)(O)O[P@](=O)(O)O[P@@](=O)(O)S)[C@@H](O)[C@H]1O | GUK1 (Homo sapiens, UniProt Q16774, S18A) | binding, ITC |  |  |  | ΔG | -5.28 kcal/mol |
| CC[C@@H]1C(=O)OC[C@@H]1Cc1cncn1C | Genome polyprotein NS3 helicase domain | DNA binding, inhibitor | hepatitis C virus | 100 µM, with: Cy5-dT15 DNA |  | inhibition | 1% |
| CC(C)OCCn1c(=S)[nH]c(=O)c2[nH]ccc21 | Myeloperoxidase (MPO, Homo sapiens, UniProt P05164) | H2O2 consumption, inhibitor, H2O2 electrode |  | 0.45 µM, 0.1 s |  | H2O2 concentration | -1.15 µM |
| Nc1ncnc2c1ncn2[C@@H]1O[C@H](COP(=O)(O)CP(=O)(O)OP(=O)(O)O)[C@@H](O)[C@H]1O | P2X purinoceptor 1 (P2RX1, Homo sapiens, UniProt P51575, E122A) | calcium influx |  | 316 nM | baseline: ionomycin response | calcium influx | 0.838% and 1% and 0.556% and 2.09% |
| CC1=C(/C=C/C(C)=C/C=C/C(C)=C/C=C/C=C(C)/C=C/C=C(C)/C=C/C2=C(C)CCCC2(C)C)C(C)(C)CCC1 | Beta-lactoglobulin (LGB, Bos taurus, UniProt P02754) | fluorescence quenching |  | 308 K |  | Stern-Volmer quenching constant | 9200 ± 700 L/mol |
| CC[C@H](C)[C@H](NC(=O)[C@H](CCCCN)NC(=O)CNC(=O)[C@@H](NC(=O)[C@@H](NC(=O)[C@H](CCSC)NC(=O)[C@H](Cc1c[nH]cn1)NC(=O)CN)[C@@H](C)O)C(C)C)C(=O)N[C@@H](Cc1ccc(O)cc1)C(=O)N[C@@H](C)C(=O)N[C@@H](C)C(=O)N[C@@H](CCSC)C(=O)N[C@@H](CCSC)C(=O)N[C@H](C(=O)N[C@@H](CCSC)C(=O)N[C@@H](CCC(=O)O)C(=O)N[C@@H](C)C(=O)N[C@@H](Cc1ccc(O)cc1)C(=O)N[C@@H](CCCNC(=N)N)C(=O)N[C@@H](CCC(N)=O)C(=O)N[C@@H](CO)C(=O)N[C@@H](CCCCN)C(=O)N[C@@H](C)C(=O)N[C@@H](CCCCN)C(=O)N[C@@H](CCCCN)C(=O)N[C@@H](CC(C)C)C(=O)N[C@@H](CCC(N)=O)C(=O)N[C@@H](C)C(=O)N[C@@H](CCSC)C(=O)N[C@@H](CCCNC(=N)N)C(=O)O)[C@@H](C)CC | CALM1 Ca2+-bound N-lobe | binding, isothermal titration calorimetry |  | pH 7.4, 15 °C, N-lobe, CaV2.1 IQ domain, with: Ca2+ |  | ΔS | 14.4 ± 1.7 cal/mol/K |
| O=C(C[C@@H](C(F)F)n1ccc(F)n1)N1CCC(O)(Cn2cnc3c(cnn3-c3ccc(F)cc3)c2=O)CC1 | Ubiquitin carboxyl-terminal hydrolase 7 (USP7, Homo sapiens, UniProt Q93009, V517F) | enzyme activity, inhibitor, Ub-AMC |  |  | baseline: V517F over wild type | IC50 ratio | 2340 |
| O=C(COP(=O)(O)O)[C@@H](O)[C@H](O)[C@H](O)COP(=O)(O)O | Erlin-1 (Homo sapiens, UniProt O75477) | thermal proteome profiling | HepG2 cell lysate | concentration not given, 57 over 37 °C | baseline: compound over control | thermal stability ratio | 1 and 11.6 and 0.607 |
| N[C@@H](CCC(=O)O)C(=O)O | NAA80 | substrate, DTNB |  | 2 mM, 30 min, 37 °C, with: acetyl-CoA 500 µM |  | product formation | 1.84 µM |
| O=C1CC[C@H](N2Cc3c(ccc4c3OCC43CCN(C[C@@H]4CCC5(CCN(c6ccc([C@@H]7c8ccc(O)cc8CC[C@@H]7c7ccccc7)cc6)CC5)OC4)CC3)C2=O)C(=O)N1 | ESR1 | degrader, Western blot | MCF7 | 4 h |  | lowest concentration reducing ER | 0.3 nM |
| O=c1nc(SCc2cc(F)cc(C(F)(F)F)c2)nc(SCc2ccc3nc(Cl)ccc3c2)[nH]1 | DNA topoisomerase 2-alpha (TOP2A, Homo sapiens, UniProt P11388) | decatenation |  | 15.6 µM, replicate 1 |  | decatenated DNA | 30% |
| O=c1c(O)c(-c2ccc(O)c(O)c2)oc2cc(O)cc(O)c12 | ESR1 | array formation | PRL-HeLa |  | baseline: EC50 ERβ over EC50 ERα | selectivity ratio | 5.26 |
| NCCCC[C@H](N)C(=O)O | NAA80 | substrate, DTNB |  | 2 mM, 30 min, 37 °C, with: acetyl-CoA 500 µM |  | product formation | 2.93 µM |

Excerpt of the above:
| Compound | target | assay | test system | conditions | scale | quantity | result |
| --- | --- | --- | --- | --- | --- | --- | --- |
| CC[C@H](C)[C@H](NC(=O)[C@H](CCCCN)NC(=O)CNC(=O)[C@@H](NC(=O)[C@@H](NC(=O)[C@H](CCSC)NC(=O)[C@H](Cc1c[nH]cn1)NC(=O)CN)[C@@H](C)O)C(C)C)C(=O)N[C@@H](Cc1ccc(O)cc1)C(=O)N[C@@H](C)C(=O)N[C@@H](C)C(=O)N[C@@H](CCSC)C(=O)N[C@@H](CCSC)C(=O)N[C@H](C(=O)N[C@@H](CCSC)C(=O)N[C@@H](CCC(=O)O)C(=O)N[C@@H](C)C(=O)N[C@@H](Cc1ccc(O)cc1)C(=O)N[C@@H](CCCNC(=N)N)C(=O)N[C@@H](CCC(N)=O)C(=O)N[C@@H](CO)C(=O)N[C@@H](CCCCN)C(=O)N[C@@H](C)C(=O)N[C@@H](CCCCN)C(=O)N[C@@H](CCCCN)C(=O)N[C@@H](CC(C)C)C(=O)N[C@@H](CCC(N)=O)C(=O)N[C@@H](C)C(=O)N[C@@H](CCSC)C(=O)N[C@@H](CCCNC(=N)N)C(=O)O)[C@@H](C)CC | CALM1 Ca2+-bound N-lobe | binding, isothermal titration calorimetry |  | pH 7.4, 15 °C, N-lobe, CaV2.1 IQ domain, with: Ca2+ |  | ΔS | 14.4 ± 1.7 cal/mol/K |
